Literature values as cited in several papers.
Each line is one published result; not all experiments were run side by side. Numbers after ± are the reported error.

CC1(N(CC(=O)O)CC(=O)O)CN(CC(=O)O)CCN(CC(=O)O)C1 — protonation constant (log) (pH-potentiometry, refers to: logK1H; 0.15 M NaCl; 25 °C): 10.1
COc1ccc(Nc2nc(Nc3ccc(OCC[18F])cc3)ncc2Br)cc1 — tumour to tissue ratio (S180 tumour-bearing mice; intravenous, 120 min; baseline: tumour over muscle): 1.96
FC(F)(F)c1cc2nc(c1)CNCCNCCNC2 — pCu (aqueous solution; Cu(II) 1 µM, ligand 10 µM): 15.6
O=C(O)CCCCC1(N(CC(=O)O)CC(=O)O)CN(CC(=O)O)CCN(CC(=O)O)C1 — protonation constant (log) (pH-potentiometry, refers to: logK3H; 0.15 M NaCl; 25 °C): 4.68
C/C(N)=N/C(=N\S(=O)(=O)c1ccc(C(F)(F)F)cc1)N1C[C@H](c2ccccc2)C(c2ccc(Cl)cc2)=N1 — t1/2 (Sprague-Dawley rat): 4 h
Cc1ccc2c(c1)nc(CCN1C(=O)c3cccc4cccc(c34)C1=O)n2-c1ccncc1 — Tmax (Sprague-Dawley rat; oral, 10 mg/kg): 0.25 h
[Cu+2].c1cc2nc(c1)CNCCNCCNC2 — cathodic peak potential (cyclic voltammetry; DMF; scan rate 100 mV/s; baseline: Fc/Fc+): -995 mV
O=C(O)CN1CCN(CC(=O)O)CCN(CC(=O)O)CC1 — log KH2 (0.1 M Me4NCl): 5.74
CCn1c(=O)c(-c2cc(NC(=O)Nc3ccccc3)c(F)cc2Br)cc2cnc(N)cc21 — AUC (human patients; 150 mg once daily, from 0 to 12, geometric mean): 7138 ± 44.4 ng·h/mL
Ic1cc2nc(c1)CNCCNCCNC2 — pCu (aqueous solution; Cu(II) 1 µM, ligand 10 µM): 15.6

A few entries again:
Cc1ccc2c(c1)nc(CCN1C(=O)c3cccc4cccc(c34)C1=O)n2-c1ccncc1 — Tmax (Sprague-Dawley rat; oral, 10 mg/kg): 0.25 h
